Results gathered from unrelated publications.
Numbered parts are unrelated; each lists some results of a single study. “And” joins repeats or separate records; there may be more than shown.

Series 1 — Structure (SMILES): CCOc1ccc(Nc2c3c(nc4ccccc24)CCC3)cc1; organism: Leishmania donovani
For parasite growth; DD8 amphotericin B-resistant, intracellular amastigotes; 8 µM: inhibition read 100%.
The inhibition was 20% (THP-1 intracellular amastigotes, DD8 resistant line; 2 µM, resistance confirmation).
It gave 2% and 8% and 5% and 4% for inhibition (parasite growth; DD8 amphotericin B-resistant, promastigotes; 0.16 µM).
The inhibition was 78% and 82% and 83% and 74% and 88% (parasite growth; DD8 amphotericin B-resistant, intracellular amastigotes; 2 µM).

Series 2 — host: mouse; sample: microsomes or S9; tested at: 2 µM; time: 0.5 h
`CC(C)(C)c1cc(-n2c(=O)[nH]c3ccccc3c2=O)no1` has a remaining compound of 61.7%.
`COc1cc(C(=O)Nc2c(C)cc(Cl)cc2C(=O)NC(C)C)n(-c2ncccc2Cl)n1` gave a remaining compound of greater than 100%.
With `Cn1ccn2ncc(C(=O)N[C@H]3COC[C@@H]3N3CCCCC3)c12` the remaining compound was 56%.

Single results of other studies
The inhibition of `Cl.Oc1cc2c(cc1O)[C@H]1c3ccccc3CN[C@@H]1CC2` is reported as -68.2% (Sarcocystis neurona; parasite growth; 10 µM, second screen).
`COC1=C[C@@H]2[C@@H]3Cc4ccc(OC)c(O)c4[C@]2(CCN3C)CC1=O` has a viability of 86% (HaCaT; 100 µM, 36 h).
`CCC(COC(=O)c1cc(OC)c(OC)c(OC)c1)(c1ccccc1)N(C)C.O=C(O)/C=C\C(=O)O` (centres unmarked) has an inhibition of -49.9% (Sarcocystis neurona; parasite growth; 10 µM, second screen).
For `CN1C(=O)CCS(=O)(=O)C1c1ccc(Cl)cc1` (centres unmarked), the viability was 91.3% (HaCaT; 100 µM, 36 h).

Some of these lines once more (series 1):
The inhibition was 78% and 82% and 83% and 74% and 88% (parasite growth; DD8 amphotericin B-resistant, intracellular amastigotes; 2 µM).
